Published values gathered from unrelated publications.
A part holds a random share of what one study measured.

Block 1
Target: RING finger protein unkempt homolog, zinc fingers 1-6, GST-SBP tag (UNK, Homo sapiens, UniProt Q9C0B0, residues 30-357)
Method: RNA Bind-n-Seq
Molecule type: RNA
Matrix: in vitro
Tested at: not given
Setting: RNA with constant flanks, human-mouse chimeric sites, ends assumed
Reference: input RNA pool
Direction: higher = stronger binding
All sequences stand within: GGGAGUUCUACAGUCCGACGAUC … CAACAGAGGAUUGAGCAUCA
Residues (chain): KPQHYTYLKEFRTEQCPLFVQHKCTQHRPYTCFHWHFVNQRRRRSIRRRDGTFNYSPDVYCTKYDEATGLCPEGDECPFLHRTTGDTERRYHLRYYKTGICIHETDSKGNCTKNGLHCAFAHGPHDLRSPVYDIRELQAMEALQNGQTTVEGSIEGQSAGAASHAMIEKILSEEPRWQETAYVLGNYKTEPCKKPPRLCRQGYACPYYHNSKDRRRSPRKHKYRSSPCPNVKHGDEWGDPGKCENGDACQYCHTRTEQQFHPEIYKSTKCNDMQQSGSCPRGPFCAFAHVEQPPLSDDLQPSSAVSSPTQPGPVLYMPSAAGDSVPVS
The bound/input enrichment of `UCAUUUUUCUCUUUUCUUUCUUUCCUUUAGGAAAAGCCUAAAGAUUAGUAAGAAAAGAAAACAGAAGCCAUGUUUCGAAGACCUGUAUUACAGGUAUUUCGUCAGUUUGUAAGACAUGAG` is reported as 0.172 ratio.
`AGGAGGAGGUUAAAGGGUGAAAAUGGGGUGGAAGACUGUGUCAUGGCUCUGGAGACACUGUUCAGUGUCCUGCUUUCUCUUUGCAGACUGAUGGCCCCUUACACGCCCUUUCUGACUGAG` gave a bound/input enrichment of 0.0793 ratio.
`AGAGAUAAGACAUCCAGGAACAUGCGAGGCUCCCGGAUGAAUGGGUUUCCAAGUCCCACUCACAGCGCCCACUGUAGCUUCUACCGAACCAGAACCUUGCAGGCACUGAGUAAUGAGAAG` gave a bound/input enrichment of 0.0674 ratio.
For `GAGUCGAGCAAACUUGAAACAAUUCGUUAUCUUGCAGCCUCAGUGUUCACUUGCUUGGCGAUAGCAUUGGGGUUUUAUAGGUUCUGGAAGGAGAACUUUAAUGCUCACUGCCGCUGCUGC`, the bound/input enrichment was 0.187 ratio.
`UACUCAACUUUCUUGCCACAUUUUGAAUUCCAAGACAUUAUUCCUCCAGAUGACUUCCUAACGAGUGAUGAAGAAGUAGAUUUGGUUUUAUUUGGAACUAUGAGAGGACAAGUUGUUGGA` has a bound/input enrichment of 0.275 ratio.
`UCUGGUCACACUCGUGUGUAUGGUGUUUGCUUUGUUGACACUUCACUGGGAAAGUUUUUCAUCGGCCAGUUUUCGGAUGACCGCCACUGUUCCAGAUUUAGGACGCUAGUGGCUCACUAU` has a bound/input enrichment of 0.255 ratio.
The bound/input enrichment of `CUCGGCACCGGCACGCUUUACAUCGCGGAGAGCCGCCUGUCCUGGUUAGAUGGCUCUGGAUUAGGAUUCUCACUGGAAUACCCCACCAUUAGUUUACAUGCAUUAUCCAGGGAUCCAAAC` is reported as 2.05 ratio.
For `CGAGACAAGACAUCCAGGAACAUGCGAGGCUCCCGGAUGAAUGGGUUGCCUAGCCCCACUCACAGCGCCCACUGUAGCUUCUACAGAACCAGAACCUUGCAGGCACUGAGUAAUGAGAAG`, the bound/input enrichment was 0.0932 ratio.
`GGACAUCUGUCAAAUUGUUAUGUUCCUGUGAAACAAGUGAGCACUUUGAUACACUUCAUCUGCUUGUACAUCUGUAUUUGUAUAAUAUGUAAAUAUGUUAAUCCAAGCAAUGUGUCACUU` has a bound/input enrichment of 0.209 ratio.
The bound/input enrichment of `GGGGAGAAACCUUACGAGUGUGUGCAGUGUGGGAAAUCCUACAGUCAGAGCUCAAACCUCUUCAGACAUCAGAGACGACACAAUGCAGAAAAACUUCUGAAUGUUGUGAAGGUUUAAGAA` is reported as 0.129 ratio.
`CGCAGAAGGUUAAAGGGUGAGAGUGGGGUGGAAGACUGUGUCAUGGCUCUGGAGACACUGUUCAGUGUUCUGCUUUCUCUGUGCAGACUGAUGGCCCCUUACACGCCCUUUCUGACUGAG` gave a bound/input enrichment of 0.0703 ratio.

Block 2
Target: RNA binding protein fox-1 homolog 2, RRM domain, GST-SBP tag (RBFOX2, Homo sapiens, UniProt O43251-10, residues 100-194)
Method: RNA Bind-n-Seq
Molecule type: RNA
Matrix: in vitro
Tested at: 365 nM
Setting: natural RNA segment, single round, ends assumed
Reference: no-protein control
Direction: higher = stronger binding
All sequences stand within: GGGAGUUCUACAGUCCGACGAUC … UGGAAUUCUCGGGUGCCAA
Target sequence (chain): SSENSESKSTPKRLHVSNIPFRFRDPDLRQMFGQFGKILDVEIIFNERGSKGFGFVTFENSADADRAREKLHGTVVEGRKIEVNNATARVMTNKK
For `AGCCACUUAGUGCUUUGUCCUGGACUCCGCUCAGCCUGAGGCUGGGGAAUAGAAAGGGCAGACCCCAAGAGUUGGAGAUUAGAGGUCCCCUCCAGAUAGCAAGAGGUUUC`, “RBNS enrichment (R)” read 0.497.
`CUUUUUUCCCUAUUUUCCACCCCAGUCGCUCCUUACCGUGACUCCUGCCCUUGGAGGGCAUGUAGCAGUGUCUGUCCUGCCAGUCCCAAGGCCCUGUGGGAGGAGACUGG` — result for “RBNS enrichment (R)”: 0.477.
Under “RBNS enrichment (R)”, `GGGUUAUAGGUGUUUAAAUUUCCUUUAGUGAAACUCUUAUUUAUUUUUAUGUAUUCCUGUUUAUUUAUUUACUGCCACGCUACUGAUAUUCAGACCUUCAUGAUCAUCCA` is recorded as 0.833.
`UUUAAGUACUCUUCCAGAUGAGAGCUCUUCUACCUUACGUCCAAGAUCUGUAUAUGUGGGAACAAAUAAGUAAAUAUAUAUACAUAUAUAUAUAUUUAAGUACAGUUUUC` — result for “RBNS enrichment (R)”: 1.02.
Under “RBNS enrichment (R)”, `UCCAUAGCACUUAACUGUAGUGAAUACUGUGUCACCAGUUCUGAAAUCAAUUUAAUGUUUAAUGCAAAUCCAUUACAUGGUGCUAUUACAGGCUGACAAAAUGAUUCACA` is recorded as 0.32.
Under “RBNS enrichment (R)”, `UCUAAGACUGGCAAAAGGACAGCAGUCUUCUAUGUUUAGUCAAUAUUCAUUUCAGUAGAAGAUAAUCUUAUCUAAUUUUUGAGACCAGAAUAAGCCUUUUAAGGUAAACC` is recorded as 0.483.
For `CUAAGUACUUUAGUAGAAAACAACCUGUCAAUUUCUGAGGAAAAUAACAUUUUAGAAGCAAAGAACAAGCCUUUCUAAAUCUUCAGCUGUCAGCGUUUGGCAUUUAAUCU`, “RBNS enrichment (R)” read 0.546.
`CGAUCAAAAACCCACUGUGAUGUGUUGGUGGCUUUGUCUGAAGCACCAGGGAGUUUGGUGAAGCUAAAGGAGUCAUAGGAGACUUGCAGUGGCUGGAUGUUCUCACGCCU` — result for “RBNS enrichment (R)”: 0.805.
For `AUAGCUGAGCAGGAGCCACAUGGAUUGAUUGUAUCCACUCACCAUUGACGAUGGCAUUGAGCGUAGCUAGCUUAUUUCCAUCACUACGUGUUUUUGAGCUUGCUCUUACG`, “RBNS enrichment (R)” read 0.503.
Under “RBNS enrichment (R)”, `GGGAAAAGCAGCGUUCCCUCUCCUUAAGCCACAGGCAGAUUGUGUAAAACAGGAACAGCAGCGGCUGUUUCAGCUGUGGGAAACGAGCUUUGCUUUUAUAUAUAUAUAUA` is recorded as 0.457.
`UUGUUUACUGGUUAUCUCUAUUUAAGGAAAAAAAAAUAAAAUAAAACAUUUUGGAUUUUCAUAUGUGUCUGAUAAGUGGUUGAAUAGUCGUUUGGCGCUGUUGUAUGGUG` — result for “RBNS enrichment (R)”: 0.873.
Under “RBNS enrichment (R)”, `AGUAAGAAAUACAAGCCAGGCCGGGCGGUGGUGGCGCACACCUUUGAUCCCAGCACUUGGGAGGCAGAGGCAGGCGGAUUUUUGAGUUUGAGACCAGCCUGAUCCAUAGA` is recorded as 0.612.

Block 3
Target: Ras GTPase-activating protein-binding protein 1, RRM domain (G3BP1, Homo sapiens, UniProt Q13283)
Chain of UniProt Q13283 (whole entry, looked up): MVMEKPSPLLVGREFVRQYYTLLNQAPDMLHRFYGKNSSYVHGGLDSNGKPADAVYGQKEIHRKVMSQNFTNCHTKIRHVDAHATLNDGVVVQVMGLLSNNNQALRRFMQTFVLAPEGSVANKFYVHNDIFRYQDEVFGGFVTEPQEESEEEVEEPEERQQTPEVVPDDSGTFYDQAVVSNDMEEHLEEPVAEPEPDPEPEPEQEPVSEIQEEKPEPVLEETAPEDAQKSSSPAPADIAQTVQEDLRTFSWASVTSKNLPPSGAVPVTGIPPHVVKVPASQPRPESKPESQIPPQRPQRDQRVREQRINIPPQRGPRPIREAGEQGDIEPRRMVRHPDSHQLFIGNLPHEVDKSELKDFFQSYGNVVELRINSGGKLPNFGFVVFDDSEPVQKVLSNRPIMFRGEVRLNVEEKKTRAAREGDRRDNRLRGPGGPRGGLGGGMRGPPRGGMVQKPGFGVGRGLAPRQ
Method: RNA Bind-n-Seq
Molecule type: RNA
Matrix: in vitro
Tested at: 1 µM
Setting: whole 134-nt RNA, ends assumed
With: 150 mM KCl
Reference: input library
Direction: higher = stronger binding
All sequences stand within: GGGAGUUCUACAGUCCGACGAUC … UGGAAUUCUCGGGUGUCAAGG
With `AAGUCCUGUGCUACACAUCGUAUGUACCGAAUCGGGGAGGGGAAAAAGGGGUGGGGAAAGUAUUAUGUUACGCCGUUCGGAUCUGCACUU` the log2 enrichment was 0.985.
With `GCAGGAAGUAAAAACAAAUGGAAAUGCUUCGGAUAGUGGCAGGGGAAAGGGUUGCUAAGGAAAGGGUGGGAUGGGAGUGGGUAAAGAGUU` the log2 enrichment was 0.897.
With `GCAGGAAGUAAAAACAAAUGGAAAUGCUUCGGAUAGUGGCAGGGGUGGGGGUUGCUAAGGAAAGGGUAGGAUGGGAGUGGGUAAAGAGUU` the log2 enrichment was 1.47.
`AGUCCUGUGCUACACAUCGUAUGUACCGAAUCAAACCCCCAAAUUUUUAAAUUUAAAAAAGUAUUAUGUUACGCCGUUCGGAUCUGCACU` has a log2 enrichment of -0.43.
`CUCAAGUCCUGUGCUACACAUCGUAUGUACCGAAUCGGGGCGGGGCGGGCGGGAAAGUAUUAUGUUACGCCGUUCGGAUCUGCACUUCCA` has a log2 enrichment of 0.492.
`UCCUCAAGUCCUGUGCUACACAUCGUAUGUACCGAAUCGGUGGAGGUUUGGAAAGUAUUAUGUUACGCCGUUCGGAUCUGCACUUCCAGC` gave a log2 enrichment of -0.278.
With `UCAAGUCCUGUGCUACACAUCGUAUGUACCGAAUCGGUUUUUGGAGGAAAAAGGAAAGUAUUAUGUUACGCCGUUCGGAUCUGCACUUCC` the log2 enrichment was -0.2.
With `UGGGAGGUGGAUGUUGUUUAUUUUUUUAGCUCAUUUCCAGGGGUGGGAAUUUUUUUUUAAUAUGUGUCAUGAAUAAAGUUGUUUUUGAAA` the log2 enrichment was 1.45.
The log2 enrichment of `UCUCUUGCUCAAGUUUUCUCUCACAGAUGACAGCCACCUACCACAUAACAUGACCAGCAAACGGACUGUUCCUAGUCCAGAGGGCCUUGC` is reported as 0.0618.
The log2 enrichment of `GUCCUGUGCUACACAUCGUAUGUACCGAAUCGGGGUUUGGGGUGGGGUUUUUUUGGGGAAAGUAUUAUGUUACGCCGUUCGGAUCUGCAC` is reported as 0.903.
The log2 enrichment of `AAGUCCUGUGCUACACAUCGUAUGUACCGAAUCGGUUUUUUUGGAGGAAAAAAAGGAAAGUAUUAUGUUACGCCGUUCGGAUCUGCACUU` is reported as -0.233.
For `UGGGAGGUGGAUUUUGUUUAUUUUUUUAGCUCAUUUCCAGGGGUGGGAAUUUUUUUUUAAUAUGUGUCAUGAAUAUAGUUGUUUUUGAAA`, the log2 enrichment was 1.64.
`UCCUCAAGUCCUGUGCUACACAUCGUAUGUACCGAAUCGGAGGUGGUUUGGAAAGUAUUAUGUUACGCCGUUCGGAUCUGCACUUCCAGC` gave a log2 enrichment of -0.249.
`CACAGACAACAAAAACCCACACAGACACAGAGGGAAGGGGUUGGGAUGGGGACAGGGUGCACAGCAGGGCGGGGUAGGACCCCAGCCCCU` has a log2 enrichment of -0.104.

Block 4
Target: Histone acetyltransferase KAT6A, winged helix 2, GST fusion (KAT6A, Homo sapiens, UniProt Q92794, residues 85-181)
Method: protein binding microarray
Molecule type: double-stranded DNA, one strand shown
Matrix: in vitro
Tested at: not given
Setting: 8-mer, flanks averaged, mean of 2 arrays, mostly near background
Reference: not given
Direction: higher = stronger binding
Construct (chain): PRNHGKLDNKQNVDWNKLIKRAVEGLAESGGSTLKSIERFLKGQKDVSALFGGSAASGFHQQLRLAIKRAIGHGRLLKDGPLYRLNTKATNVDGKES
For `CGGAGAAC`, the E-score was 0.0246.
`CCAACGAG` gave an E-score of -0.0689.
With `CGGTTATA` the E-score was -0.154.
`ATGCGATA` has an E-score of -0.00997.
With `ATTCAAAA` the E-score was 0.26.
For `CAATCCGA`, the E-score was 0.181.
With `ATAACTGC` the E-score was -0.0502.
`CGCATGGC` gave an E-score of 0.229.
`AACTGAGA` gave an E-score of 0.076.
With `ACATTCGG` the E-score was -0.0679.
The E-score of `ACAGCGGC` is reported as 0.02.
`CATGACCA` has an E-score of -0.105.
With `CAGCGAGC` the E-score was 0.118.
`CGATCTAG` gave an E-score of -0.203.
With `ACTTACTC` the E-score was -0.154.
With `AATATGTA` the E-score was 0.0144.
`CAATTCTG` gave an E-score of 0.034.
With `AACGATAG` the E-score was -0.108.
For `AAACCAGT`, the E-score was -0.0866.
The E-score of `AGTAATAG` is reported as -0.111.

Excerpt of the above (block 4):
`CATGACCA` has an E-score of -0.105.
With `CAGCGAGC` the E-score was 0.118.
`CGATCTAG` gave an E-score of -0.203.
With `ACTTACTC` the E-score was -0.154.
With `AATATGTA` the E-score was 0.0144.
